Measured values from different studies.
Parts stem from different laboratories: compare values within a part only. Changes are numbered by the printed parent chain.

Sample 1
Target: UBE2D3 UBC core domain (UniProt P61077)
Method: yeast two-hybrid
Sample: yeast
Setting: mostly zero background
Baseline: not given
Reading: higher = stronger interaction
B1: RNF182 RING domain (UniProt Q8N6D2); chain AESQASDELECKICYNRYNLKQRKPKVLECCHRVCAKCLYKIIDFGDSPQGVIVCPFCRFETCLPDDEV
B2: ZMYND11 RING domain (UniProt Q15326); chain DEIDWETENHDWYCFECHLPGEVLICDLCFRVYHSKCLSDEFRLRDSSSPWQCPVCRSIKKKNTNKQEM
B3: MKRN3 RING domain (UniProt Q13064); chain FAVQRGMDKVCGICMEVVYEKANPNDRRFGILSNCNHSFCIRCIRRWRSARQFENRIVKSCPQCRVTSELVIPSE
B4: NFX1 RING domain (UniProt Q12986); chain IEQLTTEKYECMVCCELVRVTAPVWSCQSCYHVFHLNCIKKWARSPASQADGQSGWRCPACQNVSAHVPNTY
B5: RNF103 RING domain (UniProt O00237); chain WPADMLHCTECVVCLENFENGCLLMGLPCGHVFHQNCIVMWLAGGRHCCPVCRWPSYKKKQPY
Target sequence (chain): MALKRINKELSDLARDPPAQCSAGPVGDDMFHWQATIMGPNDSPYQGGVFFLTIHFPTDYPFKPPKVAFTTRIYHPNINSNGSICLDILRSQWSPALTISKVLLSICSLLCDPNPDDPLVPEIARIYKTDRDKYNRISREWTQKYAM
| Molecule | lacZ reporter activity |
| --- | --- |
| B1 (RNF182 RING domain) | 0 |
| LVKDFNPYITCYICKGYLIKPTTVTECLHTFCKTCIVQHFEDSNDCPRCGNQVHETNPLE (PCGF5 RING domain (UniProt Q86SE9)) | 0 |
| DDVLTKDAGECVICLEELLQGDTIARLPCLCIYHKSCIDSWFEVNRSCPEHPAD (ZNRF1 RING domain (UniProt Q8ND25)) | 13300 |
| B2 (ZMYND11 RING domain) | 0 |
| B3 (MKRN3 RING domain) | 0 |
| B4 (NFX1 RING domain) | 0 |
| B5 (RNF103 RING domain) | 16300 |

Sample 2
Target: Prothrombin, mature alpha-thrombin (F2, Homo sapiens, UniProt P00734)
Method: aptamer microarray, sandwich
Molecule type: DNA with 2'F-ANA
Sample: in vitro
Tested at: 200 nM
Setting: whole 15-mer aptamer, many near background
Together with: Cy3 exosite-II aptamer, 400 nM
Reading: higher = stronger binding
Oligonucleotide: GGTTGGTGTGGTTGG
| Modification | mean fluorescence intensity |
| --- | --- |
| 2'F-ANA at 3 5 6 14 15 | 50.3 a.u. |
| 2'F-ANA at 1 2 4 5 6 7 8 9 11 13 | 51.6 a.u. |
| 2'F-ANA at 1 2 6 8 10 11 13 14 | 47.1 a.u. |
| 2'F-ANA at 4 7 9 10 12 13 | 93.9 a.u. |
| 2'F-ANA at 1 2 4 6 8 9 12 15 | 250 a.u. |
| 2'F-ANA at 1 2 3 5 6 7 10 11 13 | 46.8 a.u. |
| 2'F-ANA at 3 5 9 10 11 12 | 66 a.u. |
| 2'F-ANA at 4 9 12 13 14 | 85.8 a.u. |

Sample 3
Target: CCNE1, cyclin fold, Cln2 fusion (human)
Method: yeast growth competition, sequencing
Sample: yeast
Setting: strong parent motif
Baseline: not given
Reading: higher = stronger binding
Starting sequence: viral docking peptide; YKVKRRLVFGADD
| Variant | normalised enrichment score |
| --- | --- |
| K4H | 1.32 |
| F9I | 0.777 |
| R5M | 0.316 |
| K4L | 0.876 |
| R5N | 0.0268 |
| V8A | 4.63 |
| G10W | 3.59 |
| L7C | 0.0491 |
| V3E | 0.35 |
| V3T | 3.76 |
| L7F | 0.584 |
| R5A | 0.569 |
| L7Y | 0.109 |
| K2D | 5.46 |
| Y1A | 5.91 |
| V8T | 6.25 |
| K2P | 5.53 |
| R6G | 0.082 |

Sample 4
Target: HLA class I histocompatibility antigen, A alpha chain, allele A*25:01 (Homo sapiens, UniProt P04439)
Read-out: peptide-MHC binding
Molecule type: peptide
Tested at: concentration not given
| Molecule | binding |
| --- | --- |
| TLKPGTMSV | inactive |
| ETIEILRNY | active |
| SLGDPLHQA | inactive |
| ATEDPSSGY | inactive |
| LMQCWQLLA | inactive |
| KLHCTERSL | inactive |
| GIALAVPCV | inactive |
| QTEPKTSVV | inactive |
| KPPRGVLLY | inactive |
| TLKDGDFIL | inactive |
| EMSLADYLY | inactive |

Excerpt of the above (sample 3):
| Variant | normalised enrichment score |
| --- | --- |
| R5A | 0.569 |
| L7F | 0.584 |
| L7Y | 0.109 |
| V8A | 4.63 |
